Assay results from different studies.
Each line is one published result; not all experiments were run side by side. Values joined by “and” are separate records of one study, mostly repeats; a detail may differ. ± gives the spread as reported.
KRAS G12D GDP-bound: GTPase KRas, GDP-bound (KRAS, Homo sapiens, UniProt P01116, G12D)
KRAS C118A/G12C: GTPase KRas (KRAS, Homo sapiens, UniProt P01116, C118A/G12C)
KRAS G12C GDP-bound: GTPase KRas, GDP-bound (KRAS, Homo sapiens, UniProt P01116, G12C)

| Compound | target | test | setting | how to read | endpoint | value |
| --- | --- | --- | --- | --- | --- | --- |
| CCCC[C@@H]1NC(=O)[C@H]([C@@H](C)CC)NC(=O)[C@H](Cc2ccc(O)cc2)NC(=O)[C@H](CC(C)C)NC(=O)[C@@H]2CCCN2C(=O)[C@@H](NC(=O)[C@H](CCCNC(=N)N)NC(=O)[C@H](CCCNC(=N)N)NC(C)=O)CSSC[C@@H](C(=O)N[C@@H](CCCNC(=N)N)C(=O)N[C@@H](CCCNC(=N)N)C(N)=O)NC(=O)[C@H](C(C)C)NC(=O)[C@@H]2CCCN2C(=O)[C@H](CC(=O)O)NC(=O)[C@H](CC2CCCCC2)NC1=O | KRAS G12D GDP-bound | affinity selection mass spectrometry | mixture library 2, with: protein titration up to 5 µM | lower is stronger binding | lowest bound protein concentration | 1.25 to 2.5 µM |
| C=CC(=O)N1CC2(CCN(c3nc(N[C@H](CC(=O)NC)CC(C)C)nc(-c4cccc(OC)c4Cl)n3)CC2)C1 | KRAS C118A/G12C | covalent, DNA-encoded library screen |  |  | enrichment factor | 67 |
| C=CC(=O)N1CCN2C(=O)c3cc(F)c(-c4ccc(F)c5sc(N)c(C#N)c45)c(Cl)c3OCC[C@H]2C1 | KRAS G12C GDP-bound | covalent inhibitor, SPR | GDP-bound, biotinylated |  | kinact | 0.00903 s⁻¹ |
| CC[C@H](C)[C@@H]1NC(=O)[C@H](CC2CCCCC2)NC(=O)[C@H](CC(C)C)NC(=O)[C@@H]2CCCN2C(=O)[C@@H](NC(=O)[C@H](CCCNC(=N)N)NC(=O)[C@H](CCCNC(=N)N)NC(C)=O)CSSC[C@@H](C(=O)N[C@@H](CCCNC(=N)N)C(=O)N[C@@H](CCCNC(=N)N)C(N)=O)NC(=O)[C@H](C(C)C)NC(=O)[C@@H]2CCCN2C(=O)[C@H](CC(=O)O)NC(=O)[C@H](Cc2ccc(O)cc2)NC(=O)[C@H](CO)NC1=O | KRAS G12D GDP-bound | affinity selection mass spectrometry | mixture library 1, with: protein titration up to 5 µM | lower is stronger binding | lowest bound protein concentration | 0.08 to 0.16 µM |
| C[C@H]1CNCCN1c1cccc(-c2noc([C@@]3(C)CCCc4sc(N)c(C#N)c43)n2)n1 | GTPase KRas, with SOS1 (KRAS, Homo sapiens, UniProt P01116, C118S/G12V) | KRAS G12V-SOS1 binding, inhibitor, AlphaScreen |  | relative to: 2 | potency gain from axial methyl | 10 fold |
| CCC[C@@H]1NC(=O)[C@H](Cc2ccc(O)cc2)NC(=O)[C@H](CC(C)C)NC(=O)[C@@H]2CCCN2C(=O)[C@@H](NC(=O)[C@H](CCCNC(=N)N)NC(=O)[C@H](CCCNC(=N)N)NC(C)=O)CSSC[C@@H](C(=O)N[C@@H](CCCNC(=N)N)C(=O)N[C@@H](CCCNC(=N)N)C(N)=O)NC(=O)[C@H](C(C)C)NC(=O)[C@@H]2CCCN2C(=O)[C@H](CC(=O)O)NC(=O)[C@H](Cc2ccc(O)cc2)NC(=O)[C@H](CO)NC1=O | KRAS G12D GDP-bound | affinity selection mass spectrometry | mixture library 1, with: protein titration up to 5 µM | lower is stronger binding | lowest bound protein concentration | 1.25 µM |
| C#Cc1c(F)ccc2cc(O)cc(-c3ncc4c(N5CC6CCC(C5)N6)nc(OC[C@@]56CCCN5C[C@H](F)C6)nc4c3F)c12 | GTPase KRas, GppNHp-bound (KRAS, Homo sapiens, UniProt P01116) | SPR | wild type | relative to: GppNHp-bound over GDP-bound | on-rate decrease | 1.4 fold |
| C=CC(=O)N1CC2(CCN(c3nc(N[C@H](CC(=O)NC)CC(C)C)nc(-c4cc(F)ccc4OC)n3)CC2(F)F)C1 | KRAS C118A/G12C | covalent, DNA-encoded library screen |  |  | enrichment factor | 66 |
| CC[C@H](C)[C@@H]1NC(=O)[C@H](Cc2ccc(-c3ccccc3)cc2)NC(=O)[C@H](CC(C)C)NC(=O)[C@@H]2CCCN2C(=O)[C@@H](NC(=O)[C@H](CCCNC(=N)N)NC(=O)[C@H](CCCNC(=N)N)NC(C)=O)CSSC[C@@H](C(=O)N[C@@H](CCCNC(=N)N)C(=O)N[C@@H](CCCNC(=N)N)C(N)=O)NC(=O)[C@H](C(C)C)NC(=O)[C@@H]2CCCN2C(=O)[C@H](CC(=O)O)NC(=O)[C@H](Cc2ccc(O)cc2)NC(=O)[C@H](CO)NC1=O | KRAS G12D GDP-bound | affinity selection mass spectrometry | mixture library 4, with: protein titration up to 2.5 µM | lower is stronger binding | lowest bound protein concentration | 0.04 µM |
| C=CC(=O)N1CCN(c2nc(OC[C@@H]3CCCN3C)nc3c(F)c(-c4nc(N)cc(C)c4C(F)(F)F)c(Cl)cc23)[C@@H](C)C1 | GTPase KRas, GDP-bound (KRAS, Homo sapiens, UniProt P01116) | SPR | wild type GDP-bound |  | koff | 0.0888 ± 0.0015 s⁻¹ |
| CC(=O)N[C@@H](CCCNC(=N)N)C(=O)N[C@@H](CCCNC(=N)N)C(=O)N[C@H]1CSSC[C@@H](C(=O)N[C@@H](CCCNC(=N)N)C(=O)N[C@@H](CCCNC(=N)N)C(N)=O)NC(=O)[C@H](C(C)C)NC(=O)[C@@H]2CCCN2C(=O)[C@H](CC(=O)O)NC(=O)[C@H](Cc2ccc(O)cc2)NC(=O)[C@H](CO)NC(=O)[C@H](CCC(C)C)NC(=O)[C@H](CCc2ccccc2)NC(=O)[C@H](CC(C)C)NC(=O)[C@@H]2CCCN2C1=O | KRAS G12D GDP-bound | affinity selection mass spectrometry | mixture library 1, with: protein titration up to 5 µM | lower is stronger binding | lowest bound protein concentration | 1.25 to 2.5 µM |
| C=CC(=O)N1CC2(CCN(c3nc4c(c(-c5c(C)ccc6[nH]ncc56)n3)CCCC4)C2)C1 | KRAS C118A/G12C | SOS1-catalysed nucleotide exchange, AlphaScreen |  |  | ligand efficiency | 0.18 |
| C=C1CN2CCC[C@@]2(COc2nc(N3CCN(C(=O)/C=C/c4cccc5c4CNCC5)C[C@@H]3C)c3cc(Cl)c(-c4nc(N)cc(C)c4C(F)(F)F)c(F)c3n2)C1 | GTPase KRas, GDP-bound (KRAS, Homo sapiens, UniProt P01116, G13D) | nucleotide exchange, inhibitor, HTRF |  | relative to: 32 | potency increase | ~3 fold |
| C=CC(=O)N1CCN(c2cccc(-c3noc([C@@]4(C)CCCc5sc(N)c(C#N)c54)n3)c2)CC1 | GTPase KRas (KRAS, Homo sapiens, UniProt P01116, G12C) | covalent inhibitor, mass spectrometry |  |  | kinact | 0.474 s⁻¹ and 0.455 s⁻¹ and 1.57 s⁻¹ |
| CC[C@H](C)[C@@H]1NC(=O)[C@H](Cc2ccc(-c3ccccc3)cc2)NC(=O)[C@H](CC(C)C)NC(=O)[C@@H]2CCCN2C(=O)[C@@H](NC(=O)[C@H](CCCNC(=N)N)NC(=O)[C@H](CCCNC(=N)N)NC(C)=O)CSSC[C@@H](C(=O)N[C@@H](CCCNC(=N)N)C(=O)N[C@@H](CCCNC(=N)N)C(N)=O)NC(=O)[C@H](Cc2ccc(Cl)cc2)NC(=O)[C@@H]2C[C@@H](OCC(=O)O)CN2C(=O)[C@H](CC(=O)O)NC(=O)[C@H](Cc2ccc(O)cc2)NC(=O)[C@H](CO)NC1=O | KRAS G12D GDP-bound | affinity selection mass spectrometry | mixture library 4, with: protein titration up to 2.5 µM | lower is stronger binding | lowest bound protein concentration | 0.16 µM |
| C=CC(=O)N1CC2(CCN(c3nc(N[C@H](CC(=O)NC)CC(C)C)nc(-c4cccc(OC)c4F)n3)C2)C1 | KRAS C118A/G12C | covalent, DNA-encoded library screen |  |  | enrichment factor | 116 |
| C=CC(=O)N1CCN(c2nc(OC[C@@H]3CCCN3C)nc3c(F)c(-c4nc(N)cc(C)c4C(F)(F)F)c(Cl)cc23)[C@@H](C)C1 | KRAS G12C GDP-bound | covalent inhibitor, SPR | GDP-bound, biotinylated |  | kinact | 0.00111 s⁻¹ |
| Cc1nn2c(N3CCN(CCO)CC3)cc(-c3ccccc3)nc2c1-c1ccccc1 | GTPase KRas (KRAS, Homo sapiens, UniProt P01116) |  |  |  | intrinsic nucleotide release rate | no effect |

Excerpt of the above:
| Compound | target | test | setting | how to read | endpoint | value |
| --- | --- | --- | --- | --- | --- | --- |
| C=CC(=O)N1CCN(c2nc(OC[C@@H]3CCCN3C)nc3c(F)c(-c4nc(N)cc(C)c4C(F)(F)F)c(Cl)cc23)[C@@H](C)C1 | KRAS G12C GDP-bound | covalent inhibitor, SPR | GDP-bound, biotinylated |  | kinact | 0.00111 s⁻¹ |
| Cc1nn2c(N3CCN(CCO)CC3)cc(-c3ccccc3)nc2c1-c1ccccc1 | GTPase KRas (KRAS, Homo sapiens, UniProt P01116) |  |  |  | intrinsic nucleotide release rate | no effect |
